Experimental data of several laboratories.
Each line is one published result; not all experiments were run side by side. Values joined by “and” are separate records of one study, mostly repeats; a detail may differ. Numbers after ± are the reported error.
GAP50: Glideosome-associated protein 50 (GAP50, Plasmodium falciparum, UniProt Q8I2X3)
Chain of UniProt Q8I2X3 (whole entry, looked up): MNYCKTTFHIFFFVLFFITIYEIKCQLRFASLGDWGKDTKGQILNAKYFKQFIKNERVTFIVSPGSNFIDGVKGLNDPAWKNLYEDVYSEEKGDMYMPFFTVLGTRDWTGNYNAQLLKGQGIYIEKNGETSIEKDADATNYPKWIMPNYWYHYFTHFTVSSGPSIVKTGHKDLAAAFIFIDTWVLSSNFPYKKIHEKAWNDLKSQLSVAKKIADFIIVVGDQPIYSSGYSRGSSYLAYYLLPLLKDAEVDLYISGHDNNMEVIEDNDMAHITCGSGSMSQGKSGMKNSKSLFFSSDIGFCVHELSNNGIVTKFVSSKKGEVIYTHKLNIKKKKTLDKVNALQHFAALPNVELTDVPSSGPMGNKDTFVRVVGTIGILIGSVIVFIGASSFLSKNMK
Gria1/Gria2: Glutamate receptor AMPA 1/2 (Gria1/Gria2, Rattus norvegicus, UniProt P19490+P19491)
Chain of UniProt P19490 (whole entry, looked up): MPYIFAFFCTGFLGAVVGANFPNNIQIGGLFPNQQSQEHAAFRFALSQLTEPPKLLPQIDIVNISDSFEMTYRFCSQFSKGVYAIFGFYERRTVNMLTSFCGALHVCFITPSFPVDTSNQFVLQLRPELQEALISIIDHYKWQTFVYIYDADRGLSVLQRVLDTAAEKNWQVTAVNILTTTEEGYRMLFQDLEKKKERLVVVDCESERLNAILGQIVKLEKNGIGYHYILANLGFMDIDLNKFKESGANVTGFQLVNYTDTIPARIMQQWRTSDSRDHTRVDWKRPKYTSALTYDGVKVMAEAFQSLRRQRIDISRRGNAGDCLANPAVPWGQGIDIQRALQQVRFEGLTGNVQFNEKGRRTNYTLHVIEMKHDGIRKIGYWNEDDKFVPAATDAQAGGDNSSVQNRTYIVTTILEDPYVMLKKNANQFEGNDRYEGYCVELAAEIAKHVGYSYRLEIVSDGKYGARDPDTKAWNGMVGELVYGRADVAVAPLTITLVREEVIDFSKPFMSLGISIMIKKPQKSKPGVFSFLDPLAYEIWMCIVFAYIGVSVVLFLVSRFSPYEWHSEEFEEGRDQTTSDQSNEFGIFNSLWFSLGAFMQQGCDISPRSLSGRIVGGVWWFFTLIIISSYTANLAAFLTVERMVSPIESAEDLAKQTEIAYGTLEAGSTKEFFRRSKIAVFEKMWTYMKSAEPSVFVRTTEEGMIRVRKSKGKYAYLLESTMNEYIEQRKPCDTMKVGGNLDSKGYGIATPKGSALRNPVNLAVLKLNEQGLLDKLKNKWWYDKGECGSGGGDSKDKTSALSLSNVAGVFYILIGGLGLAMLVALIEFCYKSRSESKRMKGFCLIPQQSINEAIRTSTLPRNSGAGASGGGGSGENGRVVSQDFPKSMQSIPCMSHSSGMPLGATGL
Chain of UniProt P19491 (whole entry, looked up): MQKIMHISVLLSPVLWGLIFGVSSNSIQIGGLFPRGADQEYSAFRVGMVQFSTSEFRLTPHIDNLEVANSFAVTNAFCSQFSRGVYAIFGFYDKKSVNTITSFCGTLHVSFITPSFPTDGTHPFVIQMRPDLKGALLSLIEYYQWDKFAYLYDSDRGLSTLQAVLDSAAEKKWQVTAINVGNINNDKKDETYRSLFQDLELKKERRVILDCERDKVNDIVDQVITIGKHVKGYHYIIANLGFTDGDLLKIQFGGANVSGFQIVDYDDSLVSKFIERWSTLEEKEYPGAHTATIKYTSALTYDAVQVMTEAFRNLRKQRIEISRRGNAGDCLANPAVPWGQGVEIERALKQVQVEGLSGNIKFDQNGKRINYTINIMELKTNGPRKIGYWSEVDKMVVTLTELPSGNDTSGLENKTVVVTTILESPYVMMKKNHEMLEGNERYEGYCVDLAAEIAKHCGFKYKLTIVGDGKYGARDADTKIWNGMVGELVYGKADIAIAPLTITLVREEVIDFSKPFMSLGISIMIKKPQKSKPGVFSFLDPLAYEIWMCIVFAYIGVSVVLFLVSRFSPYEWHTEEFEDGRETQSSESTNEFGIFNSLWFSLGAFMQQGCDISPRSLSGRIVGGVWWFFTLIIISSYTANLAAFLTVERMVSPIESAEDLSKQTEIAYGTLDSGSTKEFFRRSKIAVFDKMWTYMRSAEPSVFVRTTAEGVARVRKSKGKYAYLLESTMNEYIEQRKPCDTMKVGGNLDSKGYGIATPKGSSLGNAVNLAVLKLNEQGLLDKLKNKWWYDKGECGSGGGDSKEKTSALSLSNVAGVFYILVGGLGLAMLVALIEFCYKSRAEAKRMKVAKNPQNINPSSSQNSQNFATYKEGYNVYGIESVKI
Sodium- and chloride-dependent glycine transporter 2: Sodium- and chloride-dependent glycine transporter 2 (Homo sapiens, UniProt Q9Y345)
Chain of UniProt Q7Z5P4 (whole entry, looked up): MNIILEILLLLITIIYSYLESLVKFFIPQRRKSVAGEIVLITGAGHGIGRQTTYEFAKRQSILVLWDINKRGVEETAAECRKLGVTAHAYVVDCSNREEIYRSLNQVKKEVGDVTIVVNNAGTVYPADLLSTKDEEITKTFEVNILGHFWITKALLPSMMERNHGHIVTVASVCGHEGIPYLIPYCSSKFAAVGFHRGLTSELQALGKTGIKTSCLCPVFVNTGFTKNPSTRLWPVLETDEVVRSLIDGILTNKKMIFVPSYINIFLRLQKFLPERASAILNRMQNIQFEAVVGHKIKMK
Chain of UniProt P46089 (whole entry, looked up): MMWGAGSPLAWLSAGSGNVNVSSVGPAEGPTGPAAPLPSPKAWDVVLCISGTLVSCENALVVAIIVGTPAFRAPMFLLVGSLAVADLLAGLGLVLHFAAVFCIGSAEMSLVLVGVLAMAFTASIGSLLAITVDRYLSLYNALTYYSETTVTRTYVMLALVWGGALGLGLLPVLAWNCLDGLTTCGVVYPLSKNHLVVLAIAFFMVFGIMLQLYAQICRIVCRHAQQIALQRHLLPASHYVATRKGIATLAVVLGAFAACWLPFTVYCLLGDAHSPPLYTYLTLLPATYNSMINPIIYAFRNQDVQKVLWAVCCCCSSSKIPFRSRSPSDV
Chain of UniProt Q9Y345 (whole entry, looked up): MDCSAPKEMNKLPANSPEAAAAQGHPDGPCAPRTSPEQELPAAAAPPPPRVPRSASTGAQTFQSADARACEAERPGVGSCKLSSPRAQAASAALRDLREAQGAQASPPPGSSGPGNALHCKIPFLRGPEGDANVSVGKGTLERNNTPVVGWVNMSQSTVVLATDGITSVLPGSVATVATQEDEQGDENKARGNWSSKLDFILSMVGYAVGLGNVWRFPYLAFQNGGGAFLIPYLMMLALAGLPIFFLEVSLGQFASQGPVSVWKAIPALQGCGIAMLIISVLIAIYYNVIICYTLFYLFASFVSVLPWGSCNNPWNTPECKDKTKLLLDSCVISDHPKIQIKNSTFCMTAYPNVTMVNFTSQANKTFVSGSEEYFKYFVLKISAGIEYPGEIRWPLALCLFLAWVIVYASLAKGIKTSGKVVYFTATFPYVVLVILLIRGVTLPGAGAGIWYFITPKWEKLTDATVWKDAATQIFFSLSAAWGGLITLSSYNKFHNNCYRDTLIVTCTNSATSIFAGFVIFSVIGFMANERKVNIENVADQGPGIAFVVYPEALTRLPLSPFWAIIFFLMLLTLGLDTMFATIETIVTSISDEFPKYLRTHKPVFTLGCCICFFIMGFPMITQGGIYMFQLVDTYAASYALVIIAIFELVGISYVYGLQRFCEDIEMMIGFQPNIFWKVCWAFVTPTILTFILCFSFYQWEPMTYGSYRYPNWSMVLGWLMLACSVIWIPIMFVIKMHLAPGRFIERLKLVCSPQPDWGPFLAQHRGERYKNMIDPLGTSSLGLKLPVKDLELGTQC
Chain of UniProt P45983 (whole entry, looked up): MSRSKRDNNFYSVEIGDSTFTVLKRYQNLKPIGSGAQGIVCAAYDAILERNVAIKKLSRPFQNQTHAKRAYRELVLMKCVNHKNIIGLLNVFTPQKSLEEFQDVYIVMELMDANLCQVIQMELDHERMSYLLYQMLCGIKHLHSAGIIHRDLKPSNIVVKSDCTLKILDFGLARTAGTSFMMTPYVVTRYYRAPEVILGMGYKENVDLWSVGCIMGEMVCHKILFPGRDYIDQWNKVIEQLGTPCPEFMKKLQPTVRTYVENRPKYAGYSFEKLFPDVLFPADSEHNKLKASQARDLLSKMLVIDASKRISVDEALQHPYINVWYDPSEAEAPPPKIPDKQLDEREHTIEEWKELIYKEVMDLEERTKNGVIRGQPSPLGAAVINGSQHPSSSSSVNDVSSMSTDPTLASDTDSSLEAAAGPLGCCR
Chain of UniProt P42768 (whole entry, looked up): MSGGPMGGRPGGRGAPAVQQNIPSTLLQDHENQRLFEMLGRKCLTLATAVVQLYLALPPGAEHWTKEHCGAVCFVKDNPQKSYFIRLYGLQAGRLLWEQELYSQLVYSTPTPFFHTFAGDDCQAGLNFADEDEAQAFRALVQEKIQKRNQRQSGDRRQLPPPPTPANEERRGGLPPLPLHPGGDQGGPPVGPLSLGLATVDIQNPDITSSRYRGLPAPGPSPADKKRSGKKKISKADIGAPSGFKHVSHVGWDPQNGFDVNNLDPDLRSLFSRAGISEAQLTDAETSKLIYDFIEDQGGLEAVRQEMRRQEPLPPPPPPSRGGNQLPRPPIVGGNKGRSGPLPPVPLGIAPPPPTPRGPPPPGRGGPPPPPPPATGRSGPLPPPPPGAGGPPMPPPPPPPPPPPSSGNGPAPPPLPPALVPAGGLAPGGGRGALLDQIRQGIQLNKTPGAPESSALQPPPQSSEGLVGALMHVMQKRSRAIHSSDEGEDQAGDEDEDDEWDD
Chain of UniProt P49005 (whole entry, looked up): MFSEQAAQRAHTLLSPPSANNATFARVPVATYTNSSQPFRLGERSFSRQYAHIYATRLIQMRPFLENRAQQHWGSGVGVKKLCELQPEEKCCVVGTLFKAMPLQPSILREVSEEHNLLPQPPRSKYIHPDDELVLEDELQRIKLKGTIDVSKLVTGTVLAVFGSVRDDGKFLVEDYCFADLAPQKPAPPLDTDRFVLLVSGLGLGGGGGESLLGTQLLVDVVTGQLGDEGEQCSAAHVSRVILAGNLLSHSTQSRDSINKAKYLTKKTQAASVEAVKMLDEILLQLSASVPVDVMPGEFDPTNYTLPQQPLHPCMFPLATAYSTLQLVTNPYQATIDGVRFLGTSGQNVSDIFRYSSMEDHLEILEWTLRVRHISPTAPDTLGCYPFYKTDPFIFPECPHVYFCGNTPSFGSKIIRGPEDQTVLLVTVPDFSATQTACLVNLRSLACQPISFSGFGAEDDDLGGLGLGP

SMILES | target or system | test | test system | setting | scale | quantity | value
COc1cc2nccc(Nc3ccc(Oc4ccccc4)cc3)c2cc1OC | SMUG1 (Homo sapiens, UniProt Q53HV7) | enzyme activity, activator, fluorescence |  | 20 µM | reference: control | activity | 400 ± 200%
COCCOc1cc2ncnc(Nc3cccc(-c4cn(Cc5ccc(S(N)(=O)=O)cc5)nn4)c3)c2cc1OCCOC | CA12 (Homo sapiens, UniProt O43570) | stopped-flow CO2 hydration |  |  | reference: Ki hCA VI over Ki hCA XII | selectivity ratio | 8.55
CC(=O)c1cnc(NS(=O)(=O)c2ccc(C(F)(F)F)c(Cl)c2)nc1 | 17-beta-hydroxysteroid dehydrogenase 13 (Homo sapiens, UniProt Q7Z5P4) | enzyme activity | human hepatocytes, scramble siRNA, culture medium | 48 h | reference: scramble siRNA control | oxidized product ratio | 0.35 and 0.378 and 0.341 and 0.361
OC[C@@H]1[C@@H](O)[C@H](O)[C@@H](O)c2nccn21 | bglA (Thermotoga maritima, UniProt Q08638) | ITC |  | pH 5.8, 25 °C |  | ΔH | -9.73 ± 0.932 kcal/mol
O=C(NCCCCOP(=O)(O)OP(=O)(O)OP(=O)(O)O)OCC1c2ccccc2-c2ccccc21 | POLL (Homo sapiens, UniProt Q9UGP5, Y505A) | substrate, primer extension gel |  | Y505A mutant, AP-site template |  | Km | 0.03 µM
CCCCCC=CC=C1C(=O)C=CC1CC=CCCCC(=O)O (stereo not drawn) | DNA polymerase delta subunit 2 (Homo sapiens, UniProt P49005) | competitive isoTOP-ABPP, refers to: POLD2 cysteine peptide | Ramos soluble proteome | 100 µM, together with: iodoacetamide probe | reference: DMSO over compound-treated, higher = stronger cysteine blockade | isoTOP-ABPP competition ratio | 1.6
O=Cc1c(O)c(C=O)c(O)c(C=O)c1O |  | reaction with N-acetyl-lysine, HPLC-MS |  | pH 10.2, together with: N-α-acetyl-lysine |  | pseudo-first-order rate constant | 15.8 h⁻¹
CC[C@H]1CN([C@@H](CC)c2ccc(C(F)(F)F)cc2)[C@H](CC)CN1c1nc(=O)n(C)c2ccc(C#N)nc12 | Diacylglycerol kinase eta (DGKH, Homo sapiens, UniProt Q86XP1) | type II DGK |  | concentration not given |  | lipid kinase activity | inactive
CCCCCCCCOP(=O)(Cc1ccccc1)O[C@@H]1O[C@H](CO)[C@@H](O)[C@H](O)[C@H]1F (stereo partly drawn) | GBA1 (Homo sapiens, UniProt P04062, L483P) | chaperone | MEF expressing GBA L444P | 100 µM, three days, then 48 h washout | reference: untreated | relative activity | 0.53
CN(Cc1cc(C2CC2)on1)C(=O)c1cccc(-c2ccc3c(c2)CCO3)c1 | Acetyl-coenzyme A synthetase 2 (ACS2, Candida albicans, UniProt Q8NJN3) | enzyme activity, inhibitor, coupled pyrophosphate |  | 125 µM | higher is more activity | reaction rate | 0.00235 a.u.
COc1ccccc1-c1ccncc1C(=O)Nc1nnc(OCc2ccc(Cl)cc2)s1 | DNA polymerase theta, helicase domain (POLQ, Homo sapiens, UniProt O75417) | ATPase activity, ADP-Glo |  | 0.24 µM, together with: ATP 400 µM |  | remaining activity | 34%
COC(=O)[C@@]1(C)C=C(C(=O)Nc2cccc(C(=O)Nc3ccc(Nc4nccc(-c5cccnc5)n4)c(C)c3)c2)C(=O)CC1 | Mitogen-activated protein kinase 8, docking groove (MAPK8, Homo sapiens, UniProt P45983) | peptide binding, inhibitor, fluorescence polarization |  | 12.5 µM, together with: JIP1 peptide probe |  | normalized fluorescence polarization | 0.881
CC(C)[C@@H]1NC(=O)[C@H](Cc2ccccc2)NC(=O)CSC[C@@H](C(N)=O)NC(=O)[C@H](CCC(=O)O)NC(=O)[C@H](CO)NC(=O)[C@H](Cc2c[nH]c3cccc(Cl)c23)NC(=O)[C@H](C2CCCCC2)NC(=O)[C@H](C(C)C)NC(=O)[C@H](Cc2ccc(O)cc2)NC(=O)[C@H](CC(=O)O)NC(=O)[C@H](Cc2c[nH]c3ccccc23)NC(=O)[C@H](Cc2ccc(N)nc2)NC(=O)[C@H](Cc2c[nH]c3ccc(Cl)cc23)NC(=O)[C@H](CCC(=O)O)NC1=O | Interleukin-1 receptor-like 2 (IL1RL2, Homo sapiens, UniProt Q9HB29) | IL-8 release, antagonist | A-431 | 20 µM, 18 h, together with: IL-36 10 ng/mL | reference: untreated | remaining activity | 7.54%
COc1ccc2c(c1)C1CC(C)(N2)c2c(C)nc3ccc(OC)cc3c21 (stereo not drawn) | GAP50 | binding, surface plasmon resonance |  | 1:1 binding model |  | kon | 1970 M⁻¹ s⁻¹
CC(C)Oc1cc(Cl)ccc1CNc1cc(-c2ccccc2)nc2ncnn12 | GPR3 (Homo sapiens, UniProt P46089) | cAMP reporter | human cells | 1 nM | higher is more cAMP | cAMP luminescence | 39500 a.u. and 31800 a.u. and 50200 a.u. and 33000 a.u. and 64600 a.u. and 43300 a.u. and 18400 a.u.
C=CC(=O)N1CCCC(n2c(=O)c3ncccc3n(Cc3ccc(Oc4ccccc4)cc3)c2=O)C1 (stereo not drawn) | WAS (Homo sapiens, UniProt P42768) | thermal proteome profiling |  | replicate 1 |  | melting temperature | 43.4 °C
COC(=O)Cc1cc2c(cc1C(=O)c1cccc(I)c1)OCO2 | Gria1/Gria2 | glutamate-evoked current, whole-cell patch clamp | HEK-293T | concentration not given, glutamate alone after washout, together with: glutamate |  | current amplitude after recovery | 542 ± 31 pA
CC[C@@H]([C@H](C)O)n1ncn(-c2ccc(N3CCN(c4ccc(OC[C@@H]5CO[C@@](Cn6cncn6)(c6ccc(F)cc6F)C5)cc4)CC3)cc2)c1=O | Trypanosoma cruzi | reporter mRNA translation, inhibitor, refers to: capped polyadenylated Renilla luciferase mRNA | cell-free extract | concentration not given | reference: control RNA | relative translation | 126%
CC1=CC(C)=[N+]2C1=C(CCCCN1CCCC(O)C1)c1c(C)cc(C)n1[B-]2(F)F (stereo not drawn) | Sodium- and chloride-dependent glycine transporter 2 | MS binding competition |  | 10 µM |  | remaining specific binding | 85.7 ± 4.6%
O=C1c2sc(-c3ccc(N4CCC(CO)CC4)nc3F)nc2CCN1c1cccnc1 | TAR DNA-binding protein 43, aggregated (TARDBP, Homo sapiens, UniProt Q13148) | radioligand binding | control brain sarkosyl-insoluble extract | 4.94 nM |  | specific binding | -4 pM
O=C(O)Cc1cc2c(cc1C(=O)c1cccc(Cl)c1)OCO2 | Gria1/Gria2 | glutamate-evoked current, whole-cell patch clamp | HEK-293T | concentration not given, weighted tau, 500 ms pulse, together with: glutamate |  | desensitization time constant | 3.1 ± 0.2 ms
Cc1cc(-c2ccccc2)cc(C(=O)NNS(=O)(=O)c2ccccc2)c1F | KAT5 (Homo sapiens, UniProt Q92993) | SPR |  | 0.21 µM | higher = more binding | SPR binding response | 0.107 RU
CCCCCCCO[C@H]1CO[C@H](CO)[C@@H](O)[C@H](O)[C@@H]1O | Type 1 fimbrin D-mannose specific adhesin, lectin domain (fimH, Escherichia coli K-12, UniProt P08191) | binding, isothermal titration calorimetry |  | 25 °C, global fit of two titrations |  | ΔG | -8.96 kcal/mol
COC(=O)Cc1cc2c(cc1C(=O)c1cccc(Br)c1)OCO2 | Gria1/Gria2 | glutamate-evoked current, whole-cell patch clamp | HEK-293T | concentration not given, glutamate alone after washout, together with: glutamate |  | current amplitude after recovery | 539 ± 41 pA
C#CCOC(=O)[C@@]1(C)C=C(C(=O)OC(C)(C)C)C(=O)CC1 | MAPK8 (Homo sapiens, UniProt P45983) | D-peptide binding, inhibitor, FP peptide displacement |  | 0.7812 µM | lower is stronger displacement | fraction bound | 0.975
CC1=CC(C)=[N+]2C1=C(CCCN1CCCC(C(=O)O)C1)c1c(C)cc(C)n1[B-]2(F)F (stereo not drawn) | Sodium- and chloride-dependent glycine transporter 2 | MS binding competition |  | 10 µM |  | remaining specific binding | 81.6 ± 1.6%
Cc1cc(=O)oc2cc(NC(=O)CCCCCCC(=O)NO)ccc12 | HDAC8 (Homo sapiens, UniProt Q9BY41) | ITC | phosphate buffer | pH 7.5 |  | TΔS | 2.8 kcal/mol
O=C(C1=C[C@H](C2CCCCC2)C[C@H](OCCCCO)O1)N1CCN(Cc2ccc3c(c2)OCO3)CC1 | Trypanosoma cruzi | reporter mRNA translation, inhibitor, refers to: Renilla luciferase mRNA | cell-free extract | concentration not given | reference: positive over negative control | translation activity | 138% and 93.5%
Cc1cccnc1-c1ccc(C(N)=O)cc1 | Uridine nucleoside ribohydrolase (Trichomonas vaginalis, UniProt A2FTT0) | enzyme activity, 19F NMR |  | 200 µM, 1-fold dilution |  | inhibition after jump dilution | 60%
CCOC(=O)c1ccc2c(c1)C1CC(C)(N2)c2c(C)nc3ccc(C(=O)OCC)cc3c21 (single isomer, unassigned) | GAP50 | surface plasmon resonance |  |  |  | kon | 2710 M⁻¹ s⁻¹

A few entries again:
SMILES | target or system | test | test system | setting | scale | quantity | value
OC[C@@H]1[C@@H](O)[C@H](O)[C@@H](O)c2nccn21 | bglA (Thermotoga maritima, UniProt Q08638) | ITC |  | pH 5.8, 25 °C |  | ΔH | -9.73 ± 0.932 kcal/mol
COc1ccc2c(c1)C1CC(C)(N2)c2c(C)nc3ccc(OC)cc3c21 (stereo not drawn) | GAP50 | binding, surface plasmon resonance |  | 1:1 binding model |  | kon | 1970 M⁻¹ s⁻¹
CCCCCCCO[C@H]1CO[C@H](CO)[C@@H](O)[C@H](O)[C@@H]1O | Type 1 fimbrin D-mannose specific adhesin, lectin domain (fimH, Escherichia coli K-12, UniProt P08191) | binding, isothermal titration calorimetry |  | 25 °C, global fit of two titrations |  | ΔG | -8.96 kcal/mol
